Results pooled from the literature.
Lines come from different studies, so protocols differ. Several values in a cell are separate wells, animals, samples, runs or records. ± gives the spread as reported.

[123I]c1ccc2nc(-c3ccc(-n4ccnn4)nc3)cn2c1
tracer uptake (male Wistar rat, kidney; intravenous, 4 MBq, 1 h): 0.714 %ID/g

Nc1ncnc2[nH]c(/C=C/c3ccc([N+](=O)[O-])cc3)nc12
purity (HPLC; solution, dark; before light exposure): 100%

O=C(Nc1cnccc1-c1ccc([18F])nc1)c1ccnc(NC(=O)C2CC2)c1
SUV (FVB/NJ mice, both sexes, brain; intravenous, 50 min, median, no P-gp inhibitor): 0.046

OCC1OC(n2cnc3c(NCc4ccc(Br)s4)ncnc32)C(O)C1O (stereo not drawn)
fraction unbound (equilibrium dialysis; rat plasma; 0.5 µg/mL, 4 h, pH 7.4): 0.047

CC(C)Cc1ccc(C(C)C(=O)NC(CCCCNC(=O)CCOCCOCCOCCOCCOCCOCCNC(=O)CN2CCN(CC(=O)[O-])CCN(CC(=O)[O-])CCN(CC(=O)[O-])CC2)C(=O)Nc2cccc3c(C(=O)NCC(=O)N4CC(F)(F)C[C@H]4C#N)ccnc23)cc1.[68Ga+3] (stereo partly drawn)
radiochemical stability (PBS; 120 min, 37 °C, 68Ga-labelled): 99.5 ± 1%

COc1cccc(OC)c1-c1cc(C(=O)NC2(C(=O)O)C3CC4CC(C3)CC2C4)nn1-c1ccc(C(=O)N(C)CCOCCOCCN(C)C(=O)[C@H](CCCCNC(=O)[C@H](CC(C)C)NC(=O)C2OC2C(=O)O)NC(=O)CN2CCN(CC(=O)[O-])CCN(CC(=O)[O-])CCN(CC(=O)[O-])CC2)cc1C(C)C.[177Lu+3] (mixture of isomers)
tissue uptake (mouse, HT-29 xenograft, brain; 4 h post injection): 0.18 %ID/g

COCC1CN(C2CCN(c3cc(OC)c(Nc4ncc(Br)c(Nc5ccc6c(c5P(C)(C)=O)OCCO6)n4)cc3C)CC2)C1
adverse events (first-in-human trial; human; oral, 30 mg once daily; treatment-related leading to dose reduction): 0%

CCCCN1C(=O)c2cccc3c(NCCCN4CCOCC4)ccc(c23)C1=O
Stokes shift (chloroform): 68 nm

CCCN(C)c1cc(C(F)(F)F)nc(SCCC(=O)NCc2ccco2)n1
plasma uric acid (Wistar rat, plasma; intraperitoneal, 25 mg/kg, 2 h post-dose; relative to: vehicle control): no effect

C=CC(=O)Nc1cc(Nc2nccc(-c3c[nH]c4ccccc34)n2)c(OC)cc1N(C)CCN(C)C
recovery (storage stability; human plasma; 72 h, on ice, low QC level): 73.4%

O=C1c2sc(-c3ccc(N4CCC(F)C4)nc3F)nc2CCN1c1cccnc1 (stereo not drawn)
concentration (CD1 mouse, plasma; i.v., dose not given, 0.083 h): 230 ng/mL and 399 ng/mL and 269 ng/mL

COc1cc2c(cc1O)CCN1C[C@@H](CC(C)C)[C@H](O)C[C@H]21
MRT(0-t) (measured: non-deuterated analyte; healthy human male, plasma; oral, 25 mg, geometric mean, [14C]-tetrabenazine dosed): 9.77 h

[11CH3]N1CCC(NC(=O)c2cc(-c3c(O)cc(O)cc3Oc3ccc([N+](=O)[O-])cc3)on2)CC1
standardized uptake value (healthy female Wistar rats, blood; intravenous, 2 min): 2.5 ± 0.2 g/mL

O=C(Nc1cnccc1-c1ccc([18F])cc1)c1ccnc(NC(=O)C2CC2)c1
SUV (ex vivo gamma counting; GSK-3β transgenic mice, early-stage, thalamus; intravenous, 120 min, mean, P-gp inhibitor pretreatment, with: tariquidar 15 mg/kg iv): 0.24

CC[C@H](C)[C@@H]1NC(=O)[C@H](Cc2ccc(O)cc2)NC(=O)CCCSC[C@@H](C(=O)N(CC(=O)N[C@@H](CC(C)C)C(=O)NCC(N)=O)Cc2ccc(F)cc2)NC(=O)[C@H](CC(N)=O)NC(=O)[C@H](CCC(N)=O)NC1=O
drug-related headache (human; intranasal, 200 µg single dose): 50%

CCCCN1C(=O)c2cccc3c(NCCCCCCCCN4CCOCC4)ccc(c23)C1=O
fluorescence lifetime (ethyl acetate): 9.8 ns

CC[C@H](C)[C@H](NC(=O)[C@H](N)Cc1ccc(O)cc1)C(=O)N[C@H]1CSSC[C@@H](C(=O)N(C)[C@H](C(=O)N[C@@H](CCCCN)C(=O)N[C@@H](CCCCN)C(=O)N[C@@H](CCCCN)C(N)=O)[C@@H](C)CC)NC(=O)[C@H](CCCNC(=N)N)NC(=O)[C@H](Cc2c[nH]cn2)NC(=O)[C@H](C)NC(=O)CN(C)C(=O)[C@H](Cc2c[nH]c3ccccc23)NC(=O)[C@H](CC(=O)O)NC(=O)[C@H](CCC(N)=O)NC(=O)[C@H](Cc2cn(C)c3ccccc23)NC(=O)[C@H](C(C)C)NC1=O
concentration (SPR-based competition; cynomolgus monkey, vitreous; intravitreal, 500 µg single, one month after injection, mean of eyes): ~200 nM

Cc1nn(-c2nc3c(F)cc(F)cc3s2)c(O)c1C(c1ccc(C(F)(F)F)cc1)c1c(C)nn(-c2nc3c(F)cc(F)cc3s2)c1O
CL observed (ICR mouse, plasma; intravenous, 5 mg/kg): 0.682 mL/min/kg and 2.11 mL/min/kg and 1.72 mL/min/kg

CCc1cnc(NC(=O)c2cc(S(=O)(=O)N3CCOCC3)ccc2N(C)C2CCCC2)s1
serum globulin (mouse; 10 mg/kg, 3 doses): 2.4 g/dL

CCCCN1C(=O)c2cccc3c(NCCCCCN4CCOCC4)ccc(c23)C1=O
Stokes shift (ethyl acetate): 80 nm

CC(C)[C@H](NC(=O)[C@H](Cc1c[nH]c2ccccc12)NC(=O)[C@H](CCCNC(=N)N)NC(=O)[C@H](CCCNC(=N)N)NC(=O)[C@@H](NC(=O)[C@@H](NC(=O)[C@H](CCCNC(=N)N)NC(=O)[C@@H](NC(=O)[C@@H](NC(=O)[C@H](CCCNC(=N)N)NC(=O)[C@H](CCCNC(=N)N)NC(=O)[C@@H](NC(=O)[C@H](Cc1c[nH]c2ccccc12)NC(=O)[C@H](CCCNC(=N)N)NC(=O)[C@H](CCCNC(=N)N)NC(=O)[C@@H](NC(=O)[C@H](CCCNC(=N)N)NC(=O)[C@H](CCCNC(=N)N)NC(=O)[C@@H](NC(=O)[C@H](Cc1c[nH]c2ccccc12)NC(=O)[C@H](CCCNC(=N)N)NC(=O)[C@@H](N)CCCNC(=N)N)C(C)C)C(C)C)C(C)C)C(C)C)C(C)C)C(C)C)C(C)C)C(=O)N[C@@H](CCCNC(=N)N)C(=O)N[C@@H](CCCNC(=N)N)C(=O)O
sodium (CD1 mouse, urine; intravenous, 15 mg/kg, 16 h, [14C]-labelled compound): < 100 mEq/L

COc1ccc2c(c1)CCn1c[n+]3c(c1-2)-c1ccc(OC)cc1CC3
Hematocrit (female NSG mice, blood; 6 mg/kg, day 7, 5 days per week): 41.3 ± 2.33%

O=C1c2sc(-c3ccc(N4CCC(CO)CC4)nc3F)nc2CCN1c1cccnc1
concentration (CD1 mouse, plasma; i.v., dose not given, 1.25 h): 1.51 ng/mL

C=CC(=O)Nc1cc(Nc2nccc(-c3cn(C)c4ccccc34)n2)c(OC)cc1N(C)CCNC
remaining compound (human, dried blood spots; 10 d, room temperature, high QC level): 51.7%

Fc1cncc(-c2ccc3[nH]c4ncnc(N[C@H]5CC[C@H](N6CCOCC6)CC5)c4c3c2)c1
clearance (ICR mice, plasma; intravenous, 1 mg/kg): 145 ± 90.7 mL/min/kg

N#C[C@@H]1CC(F)(F)CN1C(=O)CNC(=O)c1ccnc2c(NC(=O)CCOCCOCCOCCOCCOCCOCCNC(=O)[C@H](CCCCNC(=O)CN3CCN(CC(=O)[O-])CCN(CC(=O)[O-])CCN(CC(=O)[O-])CC3)NC(=O)CCCc3ccc(I)cc3)cccc12.[177Lu+3]
radiochemical stability (human serum; 4 h, 37 °C, 177Lu-labelled): 98.7 ± 1.2%

CCCCN1C(=O)c2cccc3c(NCCCCCCCCCCN4CCOCC4)ccc(c23)C1=O
Stokes shift (dioxane): 85 nm

O=C([O-])CN1CCN(CC(=O)[O-])CCN(CC(CCCc2ccccc2[N+](=O)[O-])N(CC(=O)[O-])CC(=O)[O-])CC1.[90Y+3] (stereo not drawn)
intact radiolabelled complex (HPLC; human serum; 183 h, pH 7, 37 °C): 100%

C=C(NC(=O)c1csc(-c2nc3c(cc2O)-c2nc(cs2)C(=O)NC(C(C)O)C(=O)NC(=C(C)OC)c2nc(cs2)C(=O)NC2c4nc(cs4)C(=O)NC(COC(=O)c4c5c6c(cccc6n4O)COC(=O)C(OC4CC(C)(O)C(N(C)C)C(C)O4)C2OC5)c2nc-3cs2)n1)C(N)=O (stereo not drawn)
clearance (Sprague-Dawley rat, male, plasma; intravenous infusion, 2 mg/kg single dose): 42.9 mL/min/kg

O=C([O-])CN1CCN(CC(=O)[O-])CCN(C(CO)C(O)CO)CCN(CC(=O)[O-])CC1.[Dy+3] (stereo not drawn)
lanthanide concentration (cynomolgus monkey, pons; dose not given, day 5): 0.034 ± 0.018 nmol/g

COc1cccc(OC)c1-c1cc(C(=O)NC2(C(=O)O)C3CC4CC(C3)CC2C4)nn1-c1ccc(C(=O)N(C)CCCN(C)C(=O)[C@H](CCCCNC(=O)[C@H](CC(C)C)NC(=O)C2OC2C(=O)O)NC(=O)CN2CCN(CC(=O)[O-])CCN(CC(=O)[O-])CCN(CC(=O)[O-])CC2)cc1C(C)C.[177Lu+3] (mixture of isomers)
tumour-to-stomach ratio (mouse HT-29 xenograft; 4 h, biodistribution; relative to: tumour over stomach): 26.4

O=S(=O)(N[C@H]1CCO[C@@H](C2c3ccc(F)cc3CCc3cc(F)ccc32)C1)c1ccc(OC(F)(F)F)cc1
brain concentration (mouse, brain; oral, 30 mg/kg, 2 h): ~2000 nM

Cc1cc(-c2ccc(C(=O)[C@@H]3CCCC[C@H]3C(=O)Nc3cnn4c3C(=O)NCC4)cc2)[nH]n1
recovery of radioactivity per interval (human, urine; oral, 200 mg, 12-24 h; relative to: dose): 0.62%

Cc1ccc(OCC(=O)N(Cc2cccs2)c2ccn[nH]2)cc1
remaining compound (rat plasma; 750 ng/mL, 6 h, 37 °C, unit not given; relative to: time zero): 0.3

CNc1cc(N)c(C(N)=O)cn1
plasma concentration (Han Wistar rats, male, plasma; oral, 30 mg/kg, 0.25 h): 17400 nM

C/C(N)=N/C(=N\S(=O)(=O)c1ccc(C(F)(F)F)cc1)N1C[C@H](c2ccccc2)C(c2ccc(Cl)cc2)=N1
Cmax (Beagle dog, plasma; oral, 24 mg/kg): 1780 ng/mL

Cc1n[nH]c(C)c1CCCOc1cc(C(=O)NCCCCC(NC(=O)CN2CCN(CC(=O)[O-])CCN(CC(=O)[O-])CCN(CC(=O)[O-])CC2)C(=O)NCC2CCC(C(=O)NC(Cc3ccc4ccccc4c3)C(=O)NCCCCC(NC(=O)NC(CCC(=O)O)C(=O)O)C(=O)O)CC2)ccc1F.[177Lu+3] (stereo not drawn)
radiochemical purity (radio-HPLC; mouse serum; 8 days, 37 °C): 89.9 ± 1.58%

CC[C@H](C)[C@H](NC(=O)[C@H](Cc1ccc(O)cc1)NC(=O)[C@@H](NC(=O)[C@H](CCCNC(=N)N)NC(=O)[C@@H](N)CC(=O)O)C(C)C)C(=O)N[C@@H](Cc1c[nH]cn1)C(=O)N1CCC[C@H]1C(=O)O
plasma concentration (LC-MS/MS; Sprague-Dawley rat, both sexes, plasma; subcutaneous, 10 mg/kg/day, day 0, 1 h, 60 min): 5.93 ng/mL

CCCCN1C(=O)c2cccc3c(NCCCCN4CCOCC4)ccc(c23)C1=O
Stokes shift (toluene): 74 nm

N#C[C@@H]1CC(F)(F)CN1C(=O)CNC(=O)c1ccnc2c(NC(=O)C(N)CCCCNC(=O)CCOCCOCCOCCOCCOCCOCCNC(=O)CN3CCN(CC(=O)[O-])CCN(CC(=O)[O-])CCN(CC(=O)[O-])CC3)cccc12.[68Ga+3] (stereo partly drawn)
radiochemical stability (PBS; 30 min, 37 °C, 68Ga-labelled): 99.31 ± 0.4%

CC(=O)N([O-])CCCCCNC(=O)CCC(=O)N([O-])CCCCCNC(=O)CCC(=O)N([O-])CCCCCN.[89Zr+4]
intact complex (radio-TLC; aqueous buffer; 7 d, pH 7.2, 37 °C, 89Zr-labelled complex, with: FeCl3 100-fold excess): 33.8 ± 1.6%

C=CS(=O)(=O)Oc1ccc(OC)c(-c2c[nH]c3ncc(-c4cncc(C(=O)N(C)C)c4)cc23)c1
reactivity half-life (HPLC; acetonitrile/water/DMSO; 50 µM, 37 °C, DIPEA 20 eq, with: N-α-acetyl-lysine): ~0.25 h

CN(Cc1cc(C2CC2)on1)C(=O)c1cccc(-c2ccc(F)cc2)c1
remaining compound (male ICR/CD-1 mouse, liver microsomes; 2 µM, 60 min, pH 7.5, with: 1-aminobenzotriazole 500 µM, preincubated 30 min): 73.8%

CCCCN1C(=O)c2cccc3c(NCCN4CCOCC4)ccc(c23)C1=O
Stokes shift (acetonitrile): 98 nm

C=CC(=O)Nc1cccc(Cn2ncc3cnc(Nc4cnn(CCOC)c4)nc32)c1
remaining compound (mouse, CD-1, both sexes, whole blood; 5 µM, 120 min): 31.5%

For quick reference, copied from above:
Cc1cc(-c2ccc(C(=O)[C@@H]3CCCC[C@H]3C(=O)Nc3cnn4c3C(=O)NCC4)cc2)[nH]n1
recovery of radioactivity per interval (human, urine; oral, 200 mg, 12-24 h; relative to: dose): 0.62%

Cc1ccc(OCC(=O)N(Cc2cccs2)c2ccn[nH]2)cc1
remaining compound (rat plasma; 750 ng/mL, 6 h, 37 °C, unit not given; relative to: time zero): 0.3

CNc1cc(N)c(C(N)=O)cn1
plasma concentration (Han Wistar rats, male, plasma; oral, 30 mg/kg, 0.25 h): 17400 nM

C/C(N)=N/C(=N\S(=O)(=O)c1ccc(C(F)(F)F)cc1)N1C[C@H](c2ccccc2)C(c2ccc(Cl)cc2)=N1
Cmax (Beagle dog, plasma; oral, 24 mg/kg): 1780 ng/mL

Cc1n[nH]c(C)c1CCCOc1cc(C(=O)NCCCCC(NC(=O)CN2CCN(CC(=O)[O-])CCN(CC(=O)[O-])CCN(CC(=O)[O-])CC2)C(=O)NCC2CCC(C(=O)NC(Cc3ccc4ccccc4c3)C(=O)NCCCCC(NC(=O)NC(CCC(=O)O)C(=O)O)C(=O)O)CC2)ccc1F.[177Lu+3] (stereo not drawn)
radiochemical purity (radio-HPLC; mouse serum; 8 days, 37 °C): 89.9 ± 1.58%
